Measurements collected from several papers.
Each numbered part is a random draw from the data of one study; scales do not carry over between parts. Changes are numbered by the printed parent chain.

Set 1 — target: CCNA1, cyclin fold, Cln2 fusion (human); method: yeast growth competition, sequencing; matrix: yeast; notes: weak parent motif; reference: not given; direction: higher = stronger binding; endpoint: normalised enrichment score
Parent: INSM1 docking peptide (human); PKAIRKLHFEDEV; partner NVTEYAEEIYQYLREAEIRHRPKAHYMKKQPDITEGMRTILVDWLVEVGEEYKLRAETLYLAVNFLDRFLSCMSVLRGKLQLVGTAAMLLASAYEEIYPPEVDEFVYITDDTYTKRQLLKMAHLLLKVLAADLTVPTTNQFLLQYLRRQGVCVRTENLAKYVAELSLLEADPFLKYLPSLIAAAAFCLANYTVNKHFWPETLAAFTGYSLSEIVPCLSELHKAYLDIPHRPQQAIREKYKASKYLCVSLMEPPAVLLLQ
K2P: 0.0488
K6S: 0.194
D11R: 0.386
D11H: 0.393
E12G: 0.702
I4C: 1.53
L7R: 0.639
A3N: -0.0154
F9Q: 0.185
A3S: 0.446
L7F: 0.271
K2S: 0.687
R5E: -0.14
D11P: 0.72
A3Q: 0.187
L7A: -0.0327
E10Y: 0.29
A3L: 0.0341
F9A: -0.39
H8G: -0.119
K6F: -0.154
E12V: 0.781
E12P: 0.644

Set 2 — method: universal PBM; form: double-stranded DNA, one strand shown; matrix: in vitro; tested at: 600 nM; direction: higher = stronger binding; endpoint: E-score
Target: Sal-like protein 4, full length isoform A (SALL4, Homo sapiens, UniProt Q9UJQ4, residues 1-1053)
Sequence of UniProt Q9UJQ4 (whole entry, looked up): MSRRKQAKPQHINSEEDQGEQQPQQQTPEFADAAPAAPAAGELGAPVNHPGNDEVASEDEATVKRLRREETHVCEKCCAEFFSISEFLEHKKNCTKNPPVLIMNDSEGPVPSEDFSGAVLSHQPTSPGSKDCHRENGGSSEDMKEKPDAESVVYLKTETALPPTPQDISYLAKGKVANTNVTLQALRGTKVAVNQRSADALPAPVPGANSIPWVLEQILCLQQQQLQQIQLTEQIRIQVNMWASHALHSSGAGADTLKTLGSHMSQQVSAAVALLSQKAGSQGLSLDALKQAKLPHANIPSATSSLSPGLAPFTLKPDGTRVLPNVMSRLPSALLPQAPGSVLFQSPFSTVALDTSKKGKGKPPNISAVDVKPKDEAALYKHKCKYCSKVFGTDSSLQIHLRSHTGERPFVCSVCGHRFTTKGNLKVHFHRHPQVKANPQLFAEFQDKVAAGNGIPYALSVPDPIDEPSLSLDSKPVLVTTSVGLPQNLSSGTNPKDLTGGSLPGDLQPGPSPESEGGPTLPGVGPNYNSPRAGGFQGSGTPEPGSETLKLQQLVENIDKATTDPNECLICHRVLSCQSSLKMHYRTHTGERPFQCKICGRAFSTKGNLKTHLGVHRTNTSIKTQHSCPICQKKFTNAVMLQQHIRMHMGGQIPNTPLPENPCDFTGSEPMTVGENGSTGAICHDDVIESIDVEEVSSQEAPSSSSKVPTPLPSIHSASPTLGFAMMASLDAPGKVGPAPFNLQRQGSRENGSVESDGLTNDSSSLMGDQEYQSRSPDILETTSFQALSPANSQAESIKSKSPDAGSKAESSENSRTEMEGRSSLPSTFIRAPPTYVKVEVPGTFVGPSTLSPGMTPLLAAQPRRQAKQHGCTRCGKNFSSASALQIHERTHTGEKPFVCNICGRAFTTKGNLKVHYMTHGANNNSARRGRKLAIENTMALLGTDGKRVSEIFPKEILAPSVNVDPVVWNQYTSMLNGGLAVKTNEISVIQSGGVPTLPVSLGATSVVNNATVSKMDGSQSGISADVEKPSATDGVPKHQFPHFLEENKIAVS
Notes: 8-mer, flanks averaged, mean of replicates
GGAATGCC: -0.177
GCTGGTCA: -0.102
CACCGAGG: -0.343
ATAAGGGA: 0.161
CCGGCTAA: -0.153
CTTTTAGC: 0.0367
CATCGTCC: -0.0863
CCAGGAGG: -0.259
CGCAACAA: 0.052
AGGCCGGC: -0.247
TACTCGAA: 0.16
GCGTTGCA: -0.217
CGATAATA: 0.334
ACGTATCT: 0.0441
CGGATTCC: -0.2
AGTTGATG: 0.179
ACTGAAGG: -0.0905
GGCCAGCA: -0.256
CAGGAAGG: -0.21
CCATATAG: 0.135
TAGACACA: 0.0547
GGCGTCTA: -0.123

Set 3 — method: aptamer microarray, sandwich; form: DNA with 2'F-ANA; matrix: in vitro; tested at: 200 nM; added: Cy3 exosite-II aptamer, 400 nM; direction: higher = stronger binding; endpoint: mean fluorescence intensity; strand: GGTTGGTGTGGTTGG
Target: Prothrombin, mature alpha-thrombin (F2, Homo sapiens, UniProt P00734)
Notes: whole 15-mer aptamer, many near background
2'F-ANA at 5 6 10: 42.8 a.u.
2'F-ANA at 2 4 7 8 10 11 15: 89 a.u.
2'F-ANA at 1 2 3 5 7 9 10 14: 47.6 a.u.
2'F-ANA at 1 2 3 9 12 13: 397 a.u.
2'F-ANA at 1 4 7 8 9 13 14: 48.6 a.u.
2'F-ANA at 2 3 4 5 6 7 11 12 14 15: 53.9 a.u.
2'F-ANA at 1 3 4 5 6 7 11 12 13 14: 46.6 a.u.
2'F-ANA at 1 2 4 6 8 11 12 13: 184 a.u.
2'F-ANA at 3 4 9 13 14 15: 282 a.u.
2'F-ANA at 1 2 3 6 8 10 11 12 13: 72 a.u.
2'F-ANA at 3 8 9 10 13 14 15: 374 a.u.
2'F-ANA at 3 5 6 7 10 11 12 13 14 15: 56.9 a.u.
2'F-ANA at 1 3 4 5 6 7 8 10 11 12 13 14: 47.5 a.u.
2'F-ANA at 2 3 5 6 8 9 13 14: 125 a.u.
2'F-ANA at 5 7 8 9 11 13: 61.7 a.u.
2'F-ANA at 1 2 4 5 7 8 14 15: 50 a.u.
2'F-ANA at 1 2 6 7 8 9 12 13 14 15: 66.7 a.u.
2'F-ANA at 3 4 5 6 7 8 10 12: 59 a.u.

Set 4 — method: RNA Bind-n-Seq; form: RNA; matrix: in vitro; tested at: 365 nM; reference: no-protein control; direction: higher = stronger binding; endpoint: RBNS enrichment (R)
Target: RNA binding protein fox-1 homolog 2, RRM domain, GST-SBP tag (RBFOX2, Homo sapiens, UniProt O43251-10, residues 100-194)
Notes: natural RNA segment, single round, ends assumed
Shared flanks, not repeated: GGGAGUUCUACAGUCCGACGAUC … UGGAAUUCUCGGGUGCCAA
Residues (chain): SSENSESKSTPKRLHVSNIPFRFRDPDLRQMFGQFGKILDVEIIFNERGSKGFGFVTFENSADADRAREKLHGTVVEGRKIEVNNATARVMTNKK
AGCUCUUCUAGCUGAAUCUGAAAUAUUACCCCUUGUCUAGAAAAAGGGGGGCAGUCAGAACAGCUGUUCCCCACUCCGUGGUUCUCAAAAUCAUAAACCAUGGCUACUCU: 0.305
ACUCCACGCUCCCCACAGGCCAACCCUGGCACAGGUCAUGUCUGCAGCCCCCAGAAUGUUCUGGACAUGCACCACCAGCCGGUGGUCCCAAUGUCCACCCCUGCCUCCCC: 0.737
UCCCAUUCACAUCAUUGGCCUGCGUUGCUGGGGCUUUGAACCACCACCCCGUACUUUGUUUUGCCUGUAGAGUGUUGUAAAAUAUUUUGGAUGUGAAUGUCCUUGCAGGC: 1.03
CUUGUACAUAAAGGCUUAAUUUGUUUUCCUUGUUAGGGUCAAGGGUGUCCUCCACUCUUUAACAGCUGCUGGACAGACACAUUAGAGCAGCUGUUUGUUAUUGAUAAUAA: 0.586
UUUCUUCUCGUUGGGACUAUGUUUGUGAACAUGAGCGUCAUAAGUUAUGUUUCAGAUUUUCAAAUUUAUUUAUACGUGUUAUAAUGAAUGCUUCUAUUUAAAGGGGAAAU: 0.477
AGAUGAUCUCUAAUGACCAAUGGGGCUUCCUUUCUAUAGGGAGGAUACCAGCAGGCCCUUAAGCCUUCCAGGACACUAAGGUCGUGGGAGCGGGACUGCAACAAGCAAUG: 0.316
GCAAGCCUAGUUGUGCUUUUUGUUGUCUGUUCCCCGUGCCCCCUCCUGUGUCUCACUCUGUCUUCUUGUCACUUGAUGUGCAUUUGCUGUUGUUCUUUCGUUUCUGUCUA: 1.23
UUAUGCCAAGAAAAGCAUACUAUAAAGCAAAUAUCUAUUAUUCUCCUAAACGAAUGCCUAGCAUAGAGAAAAUACUUAAUACACAUUUGUUGACUUAAAUUUAAUUCAAG: 0.524
CUCUCCCCUUGGUCACCUCUGGAACAAACAGGUUCCUUCCCUGGGGUCCAUAGGGAGGGACCUCAUGGGGCUGUCACAUCCUAGCAACCUUCUUAGCCUCCUUCCUUCCU: 0.582
GCCCCCCUUUGAAGAACUUUCUAUGCAGAAAUAGAUGGUCAGGGUUUCGGAUUUGCAGUGAUGUGUCUUCCGGUGGCAAUGGACAGGGAAGGAGCACCCAUGUCCACUGG: 0.736
UAUUCUCAGCACGGGUGUAUGGGGACCUCAUUACCUAUUUUUUUCAUCAUUUACCCUAGGUAAGAACUUUGAUCACUGCUUACUAGGUAAAGAAUGUUUGUACUGUUCCA: 0.917
UGCUAGGGGGAUUCAGGGAAGACCCGUGUUACCAGCUCUUACCCUUUAUCUGGACAGCUCUCCUACCCUGUAUCUUCUCCUCAGAUCUGAGGAUAGCAGGCUGGACUAUU: 0.291

Set 5 — method: protein-binding microarray; form: double-stranded DNA, one strand shown; matrix: in vitro; tested at: not given; direction: higher = stronger binding; endpoint: E-score
Target: Transcription factor SOX-2, HMG box (SOX2, Homo sapiens, UniProt P48431, residues 19-118)
Sequence of UniProt P48431 (19-118, looked up): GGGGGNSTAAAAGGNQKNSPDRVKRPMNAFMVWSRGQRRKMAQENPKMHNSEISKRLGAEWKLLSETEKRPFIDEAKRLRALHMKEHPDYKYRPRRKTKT
Notes: k-mer, scored over probes, only values ≥0.25
CAAATTA: 0.315
CTGAATA: 0.309
TATGTGA: 0.33
AACATAA: 0.253
CAATAGG: 0.285
AATTGCC: 0.294
ATTCTTC: 0.357
ATTGAAC: 0.376
ATTTAAA: 0.266
GAATTAA: 0.335
AATAATG: 0.396
AATAAAA: 0.315
AATGCAT: 0.283
CACAATG: 0.444

Set 6 — method: protein-binding microarray; form: double-stranded DNA, one strand shown; matrix: in vitro; tested at: 250 nM; notes: 60-bp whole probe; added: salmon DNA 0.4 mg/ml; reference: random background probes; direction: higher = stronger binding; endpoint: log fluorescence; shared flanks, not repeated: GCCTAGCAC … GTCTTGATTCGCTTGACGCTGCTG
Target: Interferon regulatory factor 7, full length, phosphomimetic (IRF7, Homo sapiens, UniProt Q92985, residues 1-503, S101K/S471D/S472D/S475D/S476D/S477D/S483D/S484D/S487D)
Construct (chain): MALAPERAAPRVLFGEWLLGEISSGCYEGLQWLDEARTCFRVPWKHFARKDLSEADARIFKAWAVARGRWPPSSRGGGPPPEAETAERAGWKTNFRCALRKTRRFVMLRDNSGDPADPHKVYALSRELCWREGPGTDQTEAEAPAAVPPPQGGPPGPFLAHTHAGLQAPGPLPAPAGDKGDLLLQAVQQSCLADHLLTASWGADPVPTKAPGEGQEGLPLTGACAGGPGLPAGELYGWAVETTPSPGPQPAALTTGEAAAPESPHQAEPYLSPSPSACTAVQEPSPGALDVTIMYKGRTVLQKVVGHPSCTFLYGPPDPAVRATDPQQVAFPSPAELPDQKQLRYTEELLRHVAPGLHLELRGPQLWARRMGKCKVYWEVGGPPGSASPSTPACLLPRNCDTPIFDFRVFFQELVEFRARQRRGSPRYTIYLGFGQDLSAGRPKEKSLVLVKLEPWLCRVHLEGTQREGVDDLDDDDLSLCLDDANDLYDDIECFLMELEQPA
TTCATTCCTGATCTCTGGTCGTGCTAG: 0.816 z-score
TTAGGACTGGGTCTAGGTTAGTGCTAG: -0.244 z-score
TCATGTTTGGGCATTTTTACTGTGCTA: -0.317 z-score
GTCGGTCTCCTTATCCTGACGTGCTAG: 0.734 z-score
TTAGGTATCCTCATCCTTTAGTGCTAG: -0.0969 z-score
GACGATATCAGAATCGAGACGTGCTAG: -0.0348 z-score
GGTCTTCTGGGCTGTTTAGTCGTGCTA: -0.436 z-score
TTAGATTTCAGTTCCGGTTAGTGCTAG: 2.64 z-score
GATGATTTCGGGACTGGAGACGTGCTA: -0.212 z-score
TCATGCTTTCCTTTATGACTGTGCTAG: 0.667 z-score
CTTTCTTTCCATACTGCAAGGTGCTAG: 2.9 z-score
TTAGGACCGGGGACTGGGTTAGTGCTA: -0.222 z-score
TTAGGACTGCTTTTCCTTTGGTGCTAG: 0.911 z-score
GTCGATTTCAGTATCGAGACGTGCTAG: 1.24 z-score
TCATTTCTAATGTTTTTTACTGTGCTA: 1.7 z-score
CACGGTTTCGGTCTCGGGACGTGCTAG: 8.12 z-score
GAGTGTTTCTTCTGCTGACAGTGCTAG: 0.297 z-score
TTAGATATCGGGTATAGATTAGTGCTA: -0.0025 z-score
GAAGGTCTCGGTTTCGGGACGTGCTAG: 8.31 z-score
TGAGATTTCAGTCTCGATTAGTGCTAG: 1.43 z-score
TTAGAAATCAGTCTCGATTAGTGCTAG: 1.7 z-score
GACGGACTGGACCATCGGGACGTGCTA: -0.774 z-score
TACGGTCTCGGTTTCGGGACGTGCTAG: 7.91 z-score

Other studies, line by line
PhoQ, residues 284 288 289 292 302 303 SLSVQF  fold induction (PhoP, residues 12 14 15 18 19 LWHSL (Escherichia coli, UniProt P23836); Sort-seq, refers to: YFP reporter; E. coli; PhoQ-PhoP variant library, added: 10 µM Mg2+; reference: high Mg2+ state, higher = stronger signaling): 7.05

Some of these lines once more (set 4):
UAUUCUCAGCACGGGUGUAUGGGGACCUCAUUACCUAUUUUUUUCAUCAUUUACCCUAGGUAAGAACUUUGAUCACUGCUUACUAGGUAAAGAAUGUUUGUACUGUUCCA: 0.917
UCCCAUUCACAUCAUUGGCCUGCGUUGCUGGGGCUUUGAACCACCACCCCGUACUUUGUUUUGCCUGUAGAGUGUUGUAAAAUAUUUUGGAUGUGAAUGUCCUUGCAGGC: 1.03
AGCUCUUCUAGCUGAAUCUGAAAUAUUACCCCUUGUCUAGAAAAAGGGGGGCAGUCAGAACAGCUGUUCCCCACUCCGUGGUUCUCAAAAUCAUAAACCAUGGCUACUCU: 0.305
UUUCUUCUCGUUGGGACUAUGUUUGUGAACAUGAGCGUCAUAAGUUAUGUUUCAGAUUUUCAAAUUUAUUUAUACGUGUUAUAAUGAAUGCUUCUAUUUAAAGGGGAAAU: 0.477
UUAUGCCAAGAAAAGCAUACUAUAAAGCAAAUAUCUAUUAUUCUCCUAAACGAAUGCCUAGCAUAGAGAAAAUACUUAAUACACAUUUGUUGACUUAAAUUUAAUUCAAG: 0.524
UGCUAGGGGGAUUCAGGGAAGACCCGUGUUACCAGCUCUUACCCUUUAUCUGGACAGCUCUCCUACCCUGUAUCUUCUCCUCAGAUCUGAGGAUAGCAGGCUGGACUAUU: 0.291
CUCUCCCCUUGGUCACCUCUGGAACAAACAGGUUCCUUCCCUGGGGUCCAUAGGGAGGGACCUCAUGGGGCUGUCACAUCCUAGCAACCUUCUUAGCCUCCUUCCUUCCU: 0.582
GCAAGCCUAGUUGUGCUUUUUGUUGUCUGUUCCCCGUGCCCCCUCCUGUGUCUCACUCUGUCUUCUUGUCACUUGAUGUGCAUUUGCUGUUGUUCUUUCGUUUCUGUCUA: 1.23
CUUGUACAUAAAGGCUUAAUUUGUUUUCCUUGUUAGGGUCAAGGGUGUCCUCCACUCUUUAACAGCUGCUGGACAGACACAUUAGAGCAGCUGUUUGUUAUUGAUAAUAA: 0.586
AGAUGAUCUCUAAUGACCAAUGGGGCUUCCUUUCUAUAGGGAGGAUACCAGCAGGCCCUUAAGCCUUCCAGGACACUAAGGUCGUGGGAGCGGGACUGCAACAAGCAAUG: 0.316
